Experimental data from different studies.
Each line is one published result; not all experiments were run side by side. Values joined by “and” are separate records of one study, mostly repeats; a detail may differ. Numbers after ± are the reported error.
Chain of UniProt Q00987 (whole entry, looked up): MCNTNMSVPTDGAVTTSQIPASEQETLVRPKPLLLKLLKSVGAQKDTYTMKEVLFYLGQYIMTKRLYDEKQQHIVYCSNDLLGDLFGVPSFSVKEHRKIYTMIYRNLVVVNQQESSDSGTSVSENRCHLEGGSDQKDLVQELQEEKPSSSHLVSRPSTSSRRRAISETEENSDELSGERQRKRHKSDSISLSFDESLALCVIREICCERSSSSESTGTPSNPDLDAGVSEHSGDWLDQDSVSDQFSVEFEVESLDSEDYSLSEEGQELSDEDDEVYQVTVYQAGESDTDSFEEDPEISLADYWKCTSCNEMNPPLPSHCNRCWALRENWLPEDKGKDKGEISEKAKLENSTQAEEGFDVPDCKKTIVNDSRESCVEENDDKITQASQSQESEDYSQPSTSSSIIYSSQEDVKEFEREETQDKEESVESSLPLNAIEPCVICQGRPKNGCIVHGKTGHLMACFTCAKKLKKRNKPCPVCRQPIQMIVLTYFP
Chain of UniProt O00089 (whole entry, looked up): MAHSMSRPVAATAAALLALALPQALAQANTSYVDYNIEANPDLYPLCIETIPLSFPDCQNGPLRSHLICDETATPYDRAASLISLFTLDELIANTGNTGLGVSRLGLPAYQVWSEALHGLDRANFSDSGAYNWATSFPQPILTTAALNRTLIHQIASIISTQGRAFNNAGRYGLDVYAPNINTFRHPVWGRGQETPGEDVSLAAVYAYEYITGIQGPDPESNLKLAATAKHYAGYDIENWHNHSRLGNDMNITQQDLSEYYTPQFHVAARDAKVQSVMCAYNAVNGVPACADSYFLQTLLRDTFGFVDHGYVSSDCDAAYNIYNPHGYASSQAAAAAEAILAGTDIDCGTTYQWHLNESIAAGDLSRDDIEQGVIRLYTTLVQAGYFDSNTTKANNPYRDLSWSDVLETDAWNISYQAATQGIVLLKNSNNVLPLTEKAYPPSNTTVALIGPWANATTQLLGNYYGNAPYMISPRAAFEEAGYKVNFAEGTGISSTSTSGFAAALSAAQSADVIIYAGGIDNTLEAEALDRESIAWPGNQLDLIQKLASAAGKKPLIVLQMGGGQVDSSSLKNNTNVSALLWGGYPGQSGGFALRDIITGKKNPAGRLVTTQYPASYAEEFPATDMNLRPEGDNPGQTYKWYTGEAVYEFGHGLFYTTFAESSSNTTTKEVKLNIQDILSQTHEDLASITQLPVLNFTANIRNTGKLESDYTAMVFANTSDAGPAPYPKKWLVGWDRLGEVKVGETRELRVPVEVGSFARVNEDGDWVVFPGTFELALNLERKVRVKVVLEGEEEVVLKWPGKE
Chain of UniProt Q9UH17 (whole entry, looked up): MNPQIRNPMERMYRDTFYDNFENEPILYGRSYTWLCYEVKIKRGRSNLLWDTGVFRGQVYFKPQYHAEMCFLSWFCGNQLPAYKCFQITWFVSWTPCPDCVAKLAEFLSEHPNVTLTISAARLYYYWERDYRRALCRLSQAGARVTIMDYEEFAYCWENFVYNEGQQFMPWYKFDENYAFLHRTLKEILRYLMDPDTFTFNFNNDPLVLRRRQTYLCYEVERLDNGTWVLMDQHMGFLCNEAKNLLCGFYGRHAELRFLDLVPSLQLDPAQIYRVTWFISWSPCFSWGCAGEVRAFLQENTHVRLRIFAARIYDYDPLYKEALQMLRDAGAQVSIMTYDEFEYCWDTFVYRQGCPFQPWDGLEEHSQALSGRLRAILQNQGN
Chain of UniProt Q6DWJ6 (whole entry, looked up): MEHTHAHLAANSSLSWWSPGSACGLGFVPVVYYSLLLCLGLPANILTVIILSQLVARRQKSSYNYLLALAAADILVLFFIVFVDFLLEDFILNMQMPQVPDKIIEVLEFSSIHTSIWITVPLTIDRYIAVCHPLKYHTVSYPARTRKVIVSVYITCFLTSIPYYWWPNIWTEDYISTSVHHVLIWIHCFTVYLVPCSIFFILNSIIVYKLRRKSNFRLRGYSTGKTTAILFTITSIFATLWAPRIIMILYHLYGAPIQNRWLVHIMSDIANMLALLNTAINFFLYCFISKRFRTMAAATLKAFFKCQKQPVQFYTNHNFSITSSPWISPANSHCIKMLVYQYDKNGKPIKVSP
Chain of UniProt P47870 (whole entry, looked up): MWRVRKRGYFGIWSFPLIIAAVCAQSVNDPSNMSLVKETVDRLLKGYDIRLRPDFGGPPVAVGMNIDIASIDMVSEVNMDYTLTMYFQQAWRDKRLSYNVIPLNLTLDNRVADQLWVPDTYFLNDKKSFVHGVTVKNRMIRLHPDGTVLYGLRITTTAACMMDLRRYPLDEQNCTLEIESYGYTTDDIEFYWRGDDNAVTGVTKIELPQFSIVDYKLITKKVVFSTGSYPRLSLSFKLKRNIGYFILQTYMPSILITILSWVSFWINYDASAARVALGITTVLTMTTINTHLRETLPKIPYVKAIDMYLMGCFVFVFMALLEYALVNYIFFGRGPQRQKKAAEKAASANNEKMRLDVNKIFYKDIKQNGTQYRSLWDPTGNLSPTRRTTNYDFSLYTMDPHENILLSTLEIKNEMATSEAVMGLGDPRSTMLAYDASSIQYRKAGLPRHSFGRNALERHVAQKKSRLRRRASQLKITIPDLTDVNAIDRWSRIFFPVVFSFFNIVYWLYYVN
Chain of UniProt P18507 (whole entry, looked up): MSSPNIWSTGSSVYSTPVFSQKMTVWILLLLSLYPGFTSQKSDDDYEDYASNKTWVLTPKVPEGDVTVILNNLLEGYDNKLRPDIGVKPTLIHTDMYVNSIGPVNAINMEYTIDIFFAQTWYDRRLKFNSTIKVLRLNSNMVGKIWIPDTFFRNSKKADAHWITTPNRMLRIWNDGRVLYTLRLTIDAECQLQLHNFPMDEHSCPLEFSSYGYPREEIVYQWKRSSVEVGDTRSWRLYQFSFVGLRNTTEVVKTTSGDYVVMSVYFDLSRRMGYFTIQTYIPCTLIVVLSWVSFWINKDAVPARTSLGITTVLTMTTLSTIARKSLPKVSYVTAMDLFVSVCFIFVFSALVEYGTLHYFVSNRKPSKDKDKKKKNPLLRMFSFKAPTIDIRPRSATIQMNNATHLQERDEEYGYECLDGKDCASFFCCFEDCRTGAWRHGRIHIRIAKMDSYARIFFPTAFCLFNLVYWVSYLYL
Chain of UniProt P0A988 (whole entry, unmodified, looked up): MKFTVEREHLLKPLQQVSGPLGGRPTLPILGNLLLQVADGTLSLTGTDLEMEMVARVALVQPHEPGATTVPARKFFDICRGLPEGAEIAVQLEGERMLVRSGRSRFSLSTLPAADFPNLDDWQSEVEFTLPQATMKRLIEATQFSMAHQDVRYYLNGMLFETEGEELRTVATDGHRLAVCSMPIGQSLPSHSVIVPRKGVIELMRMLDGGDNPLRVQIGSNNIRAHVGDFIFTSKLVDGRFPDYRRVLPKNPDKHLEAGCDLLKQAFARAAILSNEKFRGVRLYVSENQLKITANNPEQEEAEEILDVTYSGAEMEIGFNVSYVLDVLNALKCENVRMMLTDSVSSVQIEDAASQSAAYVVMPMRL
Chain of UniProt P14867 (whole entry, looked up): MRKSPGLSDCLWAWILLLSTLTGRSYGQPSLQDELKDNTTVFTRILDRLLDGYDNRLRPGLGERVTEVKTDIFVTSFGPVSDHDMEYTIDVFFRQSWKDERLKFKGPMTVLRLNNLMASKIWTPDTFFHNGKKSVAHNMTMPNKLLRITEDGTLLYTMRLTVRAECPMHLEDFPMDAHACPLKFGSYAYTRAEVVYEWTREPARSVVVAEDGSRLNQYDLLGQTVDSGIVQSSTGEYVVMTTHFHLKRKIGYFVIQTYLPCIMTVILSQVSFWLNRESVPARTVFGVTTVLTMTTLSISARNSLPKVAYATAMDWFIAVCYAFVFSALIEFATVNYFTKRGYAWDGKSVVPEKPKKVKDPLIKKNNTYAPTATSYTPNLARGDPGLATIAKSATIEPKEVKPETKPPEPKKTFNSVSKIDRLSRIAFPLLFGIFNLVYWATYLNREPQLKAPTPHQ
Chain of UniProt P30837 (whole entry, looked up): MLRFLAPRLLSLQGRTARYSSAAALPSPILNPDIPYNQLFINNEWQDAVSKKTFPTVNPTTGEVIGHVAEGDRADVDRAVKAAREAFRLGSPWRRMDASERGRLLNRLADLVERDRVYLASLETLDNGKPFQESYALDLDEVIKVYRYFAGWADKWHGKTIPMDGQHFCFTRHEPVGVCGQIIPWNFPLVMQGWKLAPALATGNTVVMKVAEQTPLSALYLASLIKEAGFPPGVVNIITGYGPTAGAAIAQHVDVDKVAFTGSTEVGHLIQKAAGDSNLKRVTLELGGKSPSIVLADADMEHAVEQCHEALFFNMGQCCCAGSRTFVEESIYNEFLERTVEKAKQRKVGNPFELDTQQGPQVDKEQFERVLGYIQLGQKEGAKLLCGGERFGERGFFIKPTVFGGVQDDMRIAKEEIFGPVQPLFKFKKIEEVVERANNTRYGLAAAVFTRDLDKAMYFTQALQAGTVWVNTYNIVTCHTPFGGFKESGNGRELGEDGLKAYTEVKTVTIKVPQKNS
Chain of UniProt P09668 (whole entry, looked up): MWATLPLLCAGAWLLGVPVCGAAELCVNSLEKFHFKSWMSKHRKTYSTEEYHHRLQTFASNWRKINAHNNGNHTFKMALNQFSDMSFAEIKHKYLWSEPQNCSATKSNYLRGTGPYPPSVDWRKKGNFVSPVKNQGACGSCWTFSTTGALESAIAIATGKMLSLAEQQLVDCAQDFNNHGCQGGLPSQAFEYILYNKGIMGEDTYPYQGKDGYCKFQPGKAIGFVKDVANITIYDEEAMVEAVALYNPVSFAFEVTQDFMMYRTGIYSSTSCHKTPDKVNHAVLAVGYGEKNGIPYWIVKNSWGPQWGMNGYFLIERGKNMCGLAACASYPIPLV
Chain of UniProt Q99895 (whole entry, looked up): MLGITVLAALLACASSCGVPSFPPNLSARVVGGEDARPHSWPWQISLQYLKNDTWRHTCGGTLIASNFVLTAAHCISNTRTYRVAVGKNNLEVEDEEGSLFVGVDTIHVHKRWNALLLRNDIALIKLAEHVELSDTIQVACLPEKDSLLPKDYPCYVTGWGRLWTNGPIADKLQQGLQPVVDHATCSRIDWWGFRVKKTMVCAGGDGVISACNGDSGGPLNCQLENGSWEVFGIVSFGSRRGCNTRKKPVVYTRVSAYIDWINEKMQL

`CC(C)CC(O)(CC(C)C)c1cn(C(=O)N2CCCC2)nn1` gave an SILAC ratio of 1.28 (Dipeptidyl peptidase 9 (Dpp9, Mus musculus, UniProt Q8BVG4); probe labelling, inhibitor, competitive ABPP-SILAC, item: Dpp9; mouse T cells; concentration not given, 4 h, in situ, protein level; reference: treated over DMSO, lower = more inhibition).
Under “maximum metastasis uptake”, `CC[C@H](C)[C@H](NC(=O)[C@H](CO)NC(=O)[C@H](Cc1ccc(O)cc1)NC(=O)[C@H](Cc1ccc(O)cc1)NC(=O)[C@H](CC(N)=O)NC(=O)CNC(=O)[C@H](CO)NC(=O)[C@H](Cc1ccc(O)cc1)NC(=O)[C@H](CO)NC(=O)[C@H](CO)NC(=O)[C@H](CC(N)=O)NC(=O)COCCOCCNC(=O)CN1CCN(CC(=O)O)CCN(CC(=O)O)CCN(CC(=O)O)CC1)C(=O)N[C@@H](CC(C)C)C(N)=O` [copper-64 labelled] is recorded as 18 %IA/cc (dynamic PET; tamoxifen-induced PDAC mouse model, metastases; 22.5 min, CLDN4-expressing tumours).
The AlphaLISA signal of `CC[C@H](C)[C@@H]1NC(=O)[C@H](CC(C)C)NC(=O)CNC(=O)[C@H](CCCNC(=N)N)NC(=O)[C@H](Cc2c[nH]c3ccccc23)NC(=O)[C@H](CCSC)NC(=O)[C@H](CO)NC(=O)[C@H](CCC(=O)O)NC(=O)[C@H](Cc2ccccc2)NC(=O)[C@H](CC(=O)O)NC(=O)[C@H]([C@@H](C)O)NC(=O)CNC(=O)[C@H](CCC(=O)O)NC(=O)[C@H]([C@@H](C)O)NC(=O)CNC(=O)[C@H](CC(=O)O)NC1=O` is reported as 1340 a.u. and 1350 a.u. and 1370 a.u. (MDM2 (Homo sapiens, UniProt Q00987); MDM2-ligand binding, inhibitor, AlphaLISA competition; 12.5 µM, with: GST-tagged MDM2 ligand; lower = stronger inhibition).
For `COc1cc2c(cc1NC(=O)c1cncn1C)C[C@H]1[C@H]3CCCC[C@@]23CCN1C`, the unbound fraction was 0.602 (equilibrium dialysis; mouse plasma; 5 µM, 6 h).
`O=C1NC(=O)c2c1c1cc(F)c[n+]3c1c1c2c2cc(O)ccc2[n]1[Ru-4]312([N]=C=S)[S+]3CC[S+]1CC[S+]2CC3` (stereo not drawn) gave a remaining activity of 113% (CSNK2A2 (Homo sapiens, UniProt P19784); enzyme activity; 100 nM, human enzyme, with: 10 µM ATP; reference: untreated).
`O=C(CCCC[C@@H]1SC[C@@H]2NC(=O)N[C@@H]21)NCCCCCCCCN1[C@H]2[C@H](O)[C@@H](O)[C@H](O[C@@H]3OC[C@@H](O)[C@H](O)[C@H]3O)C[C@H]21` (stereo partly drawn) has a fold enrichment of 12 fold and 11.2 fold and 15.8 fold (Exo-1,4-beta-xylosidase xlnD (Aspergillus niger, UniProt O00089); probe labelling, biotin-ABP pulldown LC-MS/MS; xylan-induced secretome; no competitor; reference: total secretome).
`CS(C)(=O)=Nc1ccc(-c2ccc(-c3nc4cc(O[C@@H]5CO[C@H]6[C@@H]5OC[C@H]6O)[nH]c4cc3F)cc2)cc1` gave an inhibition of 3% (HRH3 (Homo sapiens, UniProt Q9Y5N1); calcium signal, antagonist; 10 µM).
For `CN(C)CCCSC(=S)N1CCN(C(=O)/C=C/c2coc3ccccc3c2=O)CC1`, the MST response was 846 a.u. (Nucleoprotein (N, Tomato spotted wilt virus, UniProt P25999, R94A); binding, microscale thermophoresis; 500 µM; dose series).
`CC(C)C[C@@H]1NC(=O)CNC(=O)[C@@H]2CSSC[C@@H]3NC(=O)[C@H]([C@@H](C)O)NC(=O)[C@H](CC(N)=O)NC(=O)[C@H](CSSC[C@@H](C(=O)N[C@@H](Cc4ccc(O)cc4)C(=O)N[C@@H](CCC(N)=O)C(=O)O)NC(=O)[C@H](CC(C)C)NC(=O)[C@H](C)NC1=O)NC(=O)[C@H](CCCCN)NC(=O)[C@H](CC(=O)O)NC(=O)[C@H](CCCCN)NC(=O)[C@H](Cc1ccccc1)NC(=O)[C@H]([C@@H](C)O)NC(=O)[C@H]([C@@H](C)O)NC(=O)CNC(=O)[C@@H]1CCCN1C(=O)[C@H](CCC(=O)O)NC(=O)[C@@H](NC(=O)[C@@H](NC(=O)[C@@H](NC(=O)[C@H](CCC(=O)O)NC(=O)[C@H](CO)NC(=O)CN)C(C)C)[C@@H](C)O)CSSC[C@H](NC(=O)[C@H](CCCNC(=N)N)NC3=O)C(=O)NCC(=O)N[C@@H](CO)C(=O)N[C@@H](CC(=O)O)C(=O)NCC(=O)N[C@@H](CCCCN)C(=O)N[C@@H](CO)C(=O)N[C@@H](C)C(=O)N[C@@H](Cc1ccc(O)cc1)C(=O)N2`: “time to full digestion” ≤ 2 days (Chymotrypsin-C (Homo sapiens, UniProt Q99895); substrate, LC-MS; 15 µM, pH 8.0, 25 °C).
`CC[C@H](C)[C@@H]([C@@H](CC(=O)N1CCC[C@H]1[C@H](OC)[C@@H](C)C(=O)N[C@H](C)[C@@H](O)c1ccccc1)OC)N(C)C(=O)[C@@H](NC(=O)[C@H](C(C)C)N(C)C(=O)OCc1ccc(NC(=O)[C@H](CCCNC(N)=O)NC(=O)[C@@H](NC(=O)CCCCCN2C(=O)CC(SC[C@H](NC(=O)[C@H](CC(=O)O)NC(=O)[C@H](Cc3ccc(O)cc3)NC(=O)[C@H](Cc3c[nH]c4ccccc34)NC(=O)[C@@H](N)CCCNC(=N)N)C(=O)O)C2=O)C(C)C)cc1)C(C)C` (stereo partly drawn) — result for concentration: “not detected” (C57BL/6 mouse, healthy, heart; intraperitoneal, 2.5 mg/kg, 0.167 h).
`C#CCCCCOc1ccc2c(c1)CCCN2C(=O)CCl` has a reactivity ratio of 1.05 (ALDH1B1 (Homo sapiens, UniProt P30837); mass spectrometry profiling; H460 cell lysate; 100 µM over 10 µM, UniProt P30837; reference: high over low concentration).
For `O=C1NC2(CC2)COc2ncc(F)cc2[C@H]2COCCN2c2ccn3ncc1c3n2`, “organ-to-body weight ratio” read 0.674 ± 0.07% (Sprague-Dawley rat, female, brain; oral, 20 mg/kg/day, 4 weeks dosing, end of recovery).
For `COc1ccccc1-c1n[nH]c2nc(NC3CCN(C(=O)Cc4ccc(F)cc4F)CC3)ncc12`, the relative abundance was 1.26 (bead binding, competition bead pull-down, item: LMJF.36.4420; Leishmania donovani axenic amastigote extract; 10 µM; reference: vehicle).
For `C=CC(=O)NC[C@H](NC(=O)[C@H](CC1CCCCC1)NC(=O)[C@H](CCC(N)=O)NC(C)=O)C(=O)N[C@@H](CC(C)C)C(=O)N[C@@H](Cc1ccccc1)C(=O)O`, the -TΔS was 3.3 kcal/mol (Beta sliding clamp (Escherichia coli, UniProt P0A988, H175G); isothermal titration calorimetry; 25 °C).
`N[C@H](C(=O)N1CCCC1)C1CCN(c2nccc3c(-c4ncc(Cl)cc4Cl)cccc23)CC1` has a response of -3% (ADRA2B (Homo sapiens, UniProt P18089); functional response, agonist; 10 µM).
The relative abundance of `COc1ccccc1-c1n[nH]c2nc(N[C@H]3CC[C@H](NS(=O)(=O)CC(C)C)CC3)ncc12` is reported as 0.9 (bead binding, competition bead pull-down, item: LINJ.24.2330; Leishmania donovani extract; 10 µM; reference: vehicle).
For `CC(C)[C@H]1NC(=O)C[C@H]2/C=C/CCSSC[C@@H](NC1=O)C(=O)N[C@H](Cc1cccc3ccccc13)C(=O)NCC(=O)O2`, the inhibition was 1.8% (FGFR3 (Homo sapiens, UniProt P22607); enzyme activity, inhibitor; 10 µM).
For `C/C(=N\OCCCN1CCCCC1)c1ccc(C(F)(F)F)cc1`, the activation was 10% (GABA-A receptor; alpha-1/beta-2/gamma-2 (Homo sapiens, UniProt P14867+P18507+P47870); agonist, FLIPR membrane potential; 10 µM).
The selectivity ratio of `CCn1nc(Cl)c2c1-c1cnc(N)c(c1)O[C@H](C)c1cc(F)ccc1-c1nn(C)cc1C2` is reported as 199 fold (PLK4 (Homo sapiens, UniProt O00444); kinase activity, inhibitor; reference: IC50 PLK4 over IC50 ALK).
`CN(C)[C@H]1C[C@@]23CC[C@@]4(O2)C(=CC[C@]2(C)[C@@H](c5ccc6ccncc6c5)CC[C@H]24)C=C3[C@@H](O)[C@@H]1O` has an inhibition of 5.3% (Inositol-tetrakisphosphate 1-kinase (Homo sapiens, UniProt Q13572); ATP probe labelling, inhibitor, KiNativ profiling; 0.1 µM).
For `C=CC(=O)Nc1cc(-c2ccc(C(=O)N3CCCC(O)(CC)C3)cc2)ccc1F` (stereo not drawn), the adducted protein was 0% and 5% (DNA dC->dU-editing enzyme APOBEC-3B, C-terminal domain (Homo sapiens, UniProt Q9UH17); covalent adduct, intact protein MS; 3 h, 1-fold, 25 µM).
`CC(C)C[C@H](NC(=O)[C@H]1O[C@@H]1C(=O)O)C(=O)NCCCCN=C(N)N` gave a remaining activity of 101% (Pro-cathepsin H (Homo sapiens, UniProt P09668); enzyme activity; concentration not given).
`CC(=O)N[C@@H](CC(C)C)C(=O)N[C@H](C(=O)N[C@@H](Cc1ccccc1)C(=O)N[C@]1(C)CCCCCC/C=C/CCC[C@@](C)(C(=O)N[C@@H](C)C(=O)N[C@@H](C)C(=O)N[C@@H](C)C(=O)N[C@@H](C)C(=O)N[C@@H](C)C(=O)N[C@H](C)C(N)=O)NC(=O)[C@H](CC(C)C)NC(=O)[C@H](CCCCNC(=O)CCNC(=O)C[C@@H]2N=C(c3ccc(Cl)cc3)c3c(sc(C)c3C)-n3c(C)nnc32)NC(=O)[C@H](C)NC(=O)[C@H](Cc2c[nH]c3ccccc23)NC(=O)[C@H](Cc2ccc(O)cc2)NC(=O)[C@H](C)NC1=O)[C@@H](C)O` has a lymphocytes of 75.3% (C57BL/6 mouse, blood; intravenous, 3 mg/kg twice weekly, 2 weeks).
With `CC[C@H](C)[C@H](NC(=O)[C@H](CCCNC(=N)N)NC(=O)[C@H](CCCNC(=N)N)NC(=O)[C@H](CC(C)C)NC(=O)[C@H](Cc1ccccc1)NC(=O)CNC(=O)CNC(=O)[C@@H](N)Cc1ccc(O)cc1)C(=O)N[C@@H](CCCNC(=N)N)C(=O)N1CCC[C@H]1C(=O)N[C@@H](CCCCN)C(=O)N[C@@H](CC(C)C)C(=O)N[C@@H](CCCCN)C(=O)O` the Emax was 20.8% and 30.4% (GPR139 (Homo sapiens, UniProt Q6DWJ6); G protein activation, agonist, BRET, item: Gα14; HEK-293T/17; 40 µM; reference: GαoA response).
`O=C(N[C@@H]1c2ccccc2C[C@H]1N1CCCC1)c1ccc(-c2ccnc3[nH]ccc23)nc1` gave a remaining binding of 0% (eIF-2-alpha kinase GCN2, C-terminal kinase domain (EIF2AK4, Homo sapiens, UniProt Q9P2K8, S808G); binding, competition with immobilised ligand; 3 µM).
For `O=C(O)C(Cl)Cl.OCCN(CCO)CCO`, the inhibition was 0% (Chenopodium album; herbicidal activity; 15 mg/mL, 21 days, pre-emergence greenhouse).
The remaining binding of `CCOC(=O)[C@@H]1Cc2c(cc([N+](=O)[O-])cc2[N+](=O)[O-])[C@H](O)[C@]12C(=O)Nc1ccc(Br)cc12` is reported as 53% (MAP3K9 (Homo sapiens, UniProt P80192); binding, competition with immobilised ligand; 0.1 µM).

Some of these lines once more:
`CN(C)[C@H]1C[C@@]23CC[C@@]4(O2)C(=CC[C@]2(C)[C@@H](c5ccc6ccncc6c5)CC[C@H]24)C=C3[C@@H](O)[C@@H]1O` has an inhibition of 5.3% (Inositol-tetrakisphosphate 1-kinase (Homo sapiens, UniProt Q13572); ATP probe labelling, inhibitor, KiNativ profiling; 0.1 µM).
For `C=CC(=O)Nc1cc(-c2ccc(C(=O)N3CCCC(O)(CC)C3)cc2)ccc1F` (stereo not drawn), the adducted protein was 0% and 5% (DNA dC->dU-editing enzyme APOBEC-3B, C-terminal domain (Homo sapiens, UniProt Q9UH17); covalent adduct, intact protein MS; 3 h, 1-fold, 25 µM).
